Experimental data pooled from the literature.
Compare with care: the assays were run in different laboratories. Numbers after ± are the reported error.
BCHE: Cholinesterase (BCHE, Equus caballus, UniProt P81908)
Sequence of UniProt P81908 (whole entry, looked up): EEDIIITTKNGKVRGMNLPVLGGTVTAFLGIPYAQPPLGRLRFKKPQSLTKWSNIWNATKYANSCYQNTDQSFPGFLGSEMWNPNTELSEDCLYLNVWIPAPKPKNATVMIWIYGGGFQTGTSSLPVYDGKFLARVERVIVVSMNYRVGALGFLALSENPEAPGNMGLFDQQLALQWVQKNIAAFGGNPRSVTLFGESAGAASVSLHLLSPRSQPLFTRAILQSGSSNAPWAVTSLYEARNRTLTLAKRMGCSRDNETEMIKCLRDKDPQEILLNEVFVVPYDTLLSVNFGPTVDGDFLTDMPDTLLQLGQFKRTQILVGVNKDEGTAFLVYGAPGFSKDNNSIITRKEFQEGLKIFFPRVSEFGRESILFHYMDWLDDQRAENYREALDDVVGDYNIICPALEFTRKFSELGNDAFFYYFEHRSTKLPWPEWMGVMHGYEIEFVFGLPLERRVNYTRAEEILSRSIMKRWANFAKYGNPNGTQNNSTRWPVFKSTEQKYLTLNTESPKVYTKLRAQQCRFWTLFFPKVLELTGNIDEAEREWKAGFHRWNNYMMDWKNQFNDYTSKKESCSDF
Sequence of UniProt Q00535 (whole entry, looked up): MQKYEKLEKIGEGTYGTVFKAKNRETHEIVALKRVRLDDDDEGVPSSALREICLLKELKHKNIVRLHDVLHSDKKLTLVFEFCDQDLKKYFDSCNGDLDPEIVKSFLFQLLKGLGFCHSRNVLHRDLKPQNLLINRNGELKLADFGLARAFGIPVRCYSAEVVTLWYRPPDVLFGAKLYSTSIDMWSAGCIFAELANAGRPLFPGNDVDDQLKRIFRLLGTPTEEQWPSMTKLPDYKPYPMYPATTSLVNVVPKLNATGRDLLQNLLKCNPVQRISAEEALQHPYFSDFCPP
Sequence of UniProt P21554 (whole entry, unmodified, looked up): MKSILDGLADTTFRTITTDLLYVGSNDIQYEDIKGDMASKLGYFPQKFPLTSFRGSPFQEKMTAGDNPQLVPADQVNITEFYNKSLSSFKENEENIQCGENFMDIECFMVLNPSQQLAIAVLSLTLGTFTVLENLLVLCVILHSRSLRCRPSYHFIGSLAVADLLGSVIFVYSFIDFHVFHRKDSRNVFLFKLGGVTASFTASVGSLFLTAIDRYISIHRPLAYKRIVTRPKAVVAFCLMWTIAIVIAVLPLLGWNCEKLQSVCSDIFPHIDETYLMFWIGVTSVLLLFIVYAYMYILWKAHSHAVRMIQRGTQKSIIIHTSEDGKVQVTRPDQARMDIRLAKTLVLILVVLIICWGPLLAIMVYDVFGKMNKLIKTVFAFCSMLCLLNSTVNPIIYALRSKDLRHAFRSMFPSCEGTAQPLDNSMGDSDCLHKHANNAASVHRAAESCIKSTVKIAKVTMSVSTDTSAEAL
Sequence of UniProt P26358 (whole entry, looked up): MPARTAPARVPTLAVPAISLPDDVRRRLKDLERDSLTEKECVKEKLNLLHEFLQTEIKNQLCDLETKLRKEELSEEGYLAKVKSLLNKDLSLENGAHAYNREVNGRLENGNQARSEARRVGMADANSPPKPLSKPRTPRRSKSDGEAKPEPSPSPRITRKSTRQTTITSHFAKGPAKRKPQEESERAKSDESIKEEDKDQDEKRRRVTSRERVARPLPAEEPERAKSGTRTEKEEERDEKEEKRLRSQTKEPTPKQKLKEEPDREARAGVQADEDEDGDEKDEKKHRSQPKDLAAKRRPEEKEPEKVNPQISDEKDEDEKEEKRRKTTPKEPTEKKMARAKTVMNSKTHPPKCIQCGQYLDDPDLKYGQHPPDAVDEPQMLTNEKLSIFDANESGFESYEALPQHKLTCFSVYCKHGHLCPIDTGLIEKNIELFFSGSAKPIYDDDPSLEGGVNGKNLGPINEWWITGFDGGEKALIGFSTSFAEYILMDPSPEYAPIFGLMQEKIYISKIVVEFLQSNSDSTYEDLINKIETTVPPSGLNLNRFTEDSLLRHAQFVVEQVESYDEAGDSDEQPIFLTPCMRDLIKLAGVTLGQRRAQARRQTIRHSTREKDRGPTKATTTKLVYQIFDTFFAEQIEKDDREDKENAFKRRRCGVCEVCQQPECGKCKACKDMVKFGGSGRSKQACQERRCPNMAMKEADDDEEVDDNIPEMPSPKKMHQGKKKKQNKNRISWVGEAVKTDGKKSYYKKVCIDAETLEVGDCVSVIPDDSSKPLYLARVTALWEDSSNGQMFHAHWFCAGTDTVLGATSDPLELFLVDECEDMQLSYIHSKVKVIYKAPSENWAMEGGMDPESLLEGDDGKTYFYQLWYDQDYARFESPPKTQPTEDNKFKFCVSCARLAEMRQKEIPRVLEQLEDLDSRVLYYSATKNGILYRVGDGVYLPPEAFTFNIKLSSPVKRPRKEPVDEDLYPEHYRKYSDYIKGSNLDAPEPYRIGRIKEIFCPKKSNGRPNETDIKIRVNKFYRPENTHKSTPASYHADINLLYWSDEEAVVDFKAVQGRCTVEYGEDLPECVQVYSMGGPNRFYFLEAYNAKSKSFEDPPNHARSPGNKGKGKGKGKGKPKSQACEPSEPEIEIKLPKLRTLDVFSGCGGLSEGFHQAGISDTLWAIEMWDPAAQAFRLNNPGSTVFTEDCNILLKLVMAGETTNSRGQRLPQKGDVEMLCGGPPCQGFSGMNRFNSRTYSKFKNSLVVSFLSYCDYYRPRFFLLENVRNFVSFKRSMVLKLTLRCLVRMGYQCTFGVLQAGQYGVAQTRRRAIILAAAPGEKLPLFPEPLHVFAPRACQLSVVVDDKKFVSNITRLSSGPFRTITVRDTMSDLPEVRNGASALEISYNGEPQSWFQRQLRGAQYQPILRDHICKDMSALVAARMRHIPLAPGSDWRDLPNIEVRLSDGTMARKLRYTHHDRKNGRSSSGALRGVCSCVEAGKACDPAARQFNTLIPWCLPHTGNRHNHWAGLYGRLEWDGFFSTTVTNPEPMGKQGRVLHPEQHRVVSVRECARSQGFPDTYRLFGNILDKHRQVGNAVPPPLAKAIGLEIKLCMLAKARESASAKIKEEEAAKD
Sequence of UniProt P12822 (whole entry, looked up): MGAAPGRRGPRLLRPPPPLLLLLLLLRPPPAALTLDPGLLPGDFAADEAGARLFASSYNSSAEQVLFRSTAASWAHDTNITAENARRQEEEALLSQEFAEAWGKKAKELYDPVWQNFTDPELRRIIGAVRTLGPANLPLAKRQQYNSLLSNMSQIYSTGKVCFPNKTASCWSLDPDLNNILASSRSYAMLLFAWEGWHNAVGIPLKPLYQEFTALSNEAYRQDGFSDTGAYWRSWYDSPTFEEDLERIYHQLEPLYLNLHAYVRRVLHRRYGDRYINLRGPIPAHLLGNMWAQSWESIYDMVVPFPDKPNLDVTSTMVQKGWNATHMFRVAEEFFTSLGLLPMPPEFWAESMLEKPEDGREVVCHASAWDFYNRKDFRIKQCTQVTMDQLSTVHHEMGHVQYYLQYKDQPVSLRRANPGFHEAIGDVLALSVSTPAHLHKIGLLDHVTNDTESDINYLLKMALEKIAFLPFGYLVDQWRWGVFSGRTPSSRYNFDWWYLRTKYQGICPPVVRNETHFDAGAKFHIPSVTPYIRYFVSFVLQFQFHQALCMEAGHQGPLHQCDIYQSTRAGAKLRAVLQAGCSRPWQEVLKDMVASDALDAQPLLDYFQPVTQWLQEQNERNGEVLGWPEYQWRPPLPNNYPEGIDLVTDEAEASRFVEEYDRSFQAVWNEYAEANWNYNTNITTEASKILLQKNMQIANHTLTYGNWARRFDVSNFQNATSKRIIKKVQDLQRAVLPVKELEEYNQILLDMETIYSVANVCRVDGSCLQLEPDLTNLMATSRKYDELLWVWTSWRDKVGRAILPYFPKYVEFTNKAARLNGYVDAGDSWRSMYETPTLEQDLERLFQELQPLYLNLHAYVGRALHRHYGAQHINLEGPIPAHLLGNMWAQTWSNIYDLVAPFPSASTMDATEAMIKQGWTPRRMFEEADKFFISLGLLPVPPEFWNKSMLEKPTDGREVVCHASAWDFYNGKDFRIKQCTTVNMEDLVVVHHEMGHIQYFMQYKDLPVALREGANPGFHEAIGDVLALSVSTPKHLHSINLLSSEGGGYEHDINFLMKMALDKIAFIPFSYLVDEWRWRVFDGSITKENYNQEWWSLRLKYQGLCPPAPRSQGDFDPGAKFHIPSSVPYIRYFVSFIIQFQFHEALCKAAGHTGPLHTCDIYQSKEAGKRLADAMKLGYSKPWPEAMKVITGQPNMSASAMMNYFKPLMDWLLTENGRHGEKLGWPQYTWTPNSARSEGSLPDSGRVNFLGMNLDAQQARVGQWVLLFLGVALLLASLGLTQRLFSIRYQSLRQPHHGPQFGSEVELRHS
Sequence of UniProt Q9NVM4 (whole entry, looked up): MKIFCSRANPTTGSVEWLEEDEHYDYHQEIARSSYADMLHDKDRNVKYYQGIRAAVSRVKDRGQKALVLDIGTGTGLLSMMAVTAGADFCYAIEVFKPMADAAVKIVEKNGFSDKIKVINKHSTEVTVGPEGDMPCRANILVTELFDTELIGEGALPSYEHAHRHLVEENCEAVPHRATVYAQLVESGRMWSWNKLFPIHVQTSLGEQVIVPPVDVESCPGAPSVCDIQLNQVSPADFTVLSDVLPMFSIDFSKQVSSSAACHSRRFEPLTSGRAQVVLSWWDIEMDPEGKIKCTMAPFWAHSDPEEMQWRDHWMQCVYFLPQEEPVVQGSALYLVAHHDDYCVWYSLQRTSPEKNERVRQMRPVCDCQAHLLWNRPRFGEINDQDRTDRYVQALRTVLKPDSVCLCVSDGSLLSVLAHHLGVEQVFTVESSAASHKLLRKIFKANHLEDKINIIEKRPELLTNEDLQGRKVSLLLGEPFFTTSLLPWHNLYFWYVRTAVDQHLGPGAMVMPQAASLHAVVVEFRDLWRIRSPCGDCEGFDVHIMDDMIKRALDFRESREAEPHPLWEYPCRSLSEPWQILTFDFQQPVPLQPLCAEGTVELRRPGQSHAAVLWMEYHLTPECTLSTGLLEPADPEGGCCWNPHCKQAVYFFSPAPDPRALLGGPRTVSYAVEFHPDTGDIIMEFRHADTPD

The inhibition of `NCC(CCC(N)C(=O)O)CC1OC(n2cnc3c(N)ncnc32)C(O)C1O` (stereo not drawn) is reported as > 50% (Protein arginine N-methyltransferase 7 (PRMT7, Homo sapiens, UniProt Q9NVM4); enzyme activity, inhibitor; 20 µM).
With `c1ccc2ncc(Nc3c4c(nc5ccccc35)CCCC4)cc2c1` the inhibition was -169% (BCHE; enzyme activity, inhibitor; 50 µM).
`CC(C)C[C@H](N)C(=O)N1CCC[C@H]1C(=O)N[C@@H](Cc1ccc(O)cc1)C(=O)N[C@@H](Cc1ccc(O)cc1)C(=O)O` has an inhibition of 93.23 ± 0.21% (Angiotensin-converting enzyme (ACE, Oryctolagus cuniculus, UniProt P12822); inhibitor; rabbit; concentration not given, 3 h, 37 °C, after incubation with ACE).
For `CCCCCn1cc(C(=O)c2ccc3ccccc3c2)c2ccccc21`, the Emax was 106 ± 2.8% (Cannabinoid receptor 1 (CNR1, Homo sapiens, UniProt P21554, L193I); Gαi1 engagement, agonist, BRET; baseline: reference agonist at wild-type CB1).
`N=C(N)NCCC[C@@H]1NC(=O)[C@H](CCCCNC(=O)CNC(=O)CNC(=O)CNC(=O)CC[C@H](NC(=O)CCOCCOCCOCCOCCNC(=O)CC[C@H](NC(=O)CN2CCN(CC(=O)O)CCN(CC(=O)O)CCN(CC(=O)O)CC2)C(=O)NCCOCCOCCOCCOCCC(=O)N[C@@H](CCC(=O)NCC(=O)NCC(=O)NCC(=O)NCCCC[C@@H]2NC(=O)[C@@H](Cc3ccccc3)NC(=O)[C@H](CC(=O)O)NC(=O)CNC(=O)[C@H](CCCNC(=N)N)NC2=O)C(=O)NCC(=O)NCC(=O)NCC(=O)NCCCC[C@@H]2NC(=O)[C@@H](Cc3ccccc3)NC(=O)[C@H](CC(=O)O)NC(=O)CNC(=O)[C@H](CCCNC(=N)N)NC2=O)C(=O)NCC(=O)NCC(=O)NCC(=O)NCCCC[C@@H]2NC(=O)[C@@H](Cc3ccccc3)NC(=O)[C@H](CC(=O)O)NC(=O)CNC(=O)[C@H](CCCNC(=N)N)NC2=O)NC(=O)[C@@H](Cc2ccccc2)NC(=O)[C@H](CC(=O)O)NC(=O)CNC1=O` [indium-111 labelled] gave a tissue uptake of 3.62 ± 0.85 %ID/g (female athymic nude mice, liver; intravenous, 3 µCi, 0.5 h, U-87 MG glioma xenograft).
`CC(=O)NC(Cc1ccc(Br)c(Cl)c1)C(=O)N[C@@H](C)C(=O)N1CCC[C@H]1C(=O)N1CCC[C@H]1C(=O)N[C@@H](CCC(=O)O)C(=O)N[C@@H](Cc1c[nH]cn1)C(=O)N[C@@H](CO)C(=O)N[C@H](C(=O)N[C@@H](C)C(N)=O)[C@@H](C)OP(=O)(O)O` (stereo partly drawn) has an inhibition of 0.49% (Cyclin-dependent kinase 5, with p35 (CDK5, Homo sapiens, UniProt Q00535); enzyme activity, inhibitor; 10 µM).
`OC[C@@H]1NC[C@H](O)[C@@H]1O` has an inhibition of 50% (Mannosyl-oligosaccharide alpha-1,2-mannosidase 1B (mns1B, Aspergillus phoenicis, UniProt Q12563); enzyme activity, inhibitor; 1 mM).
The inhibition of `FC(F)(F)c1ccc(Nc2c3c(nc4ccccc24)CCCC3)cc1` is reported as -23.5% (BCHE; enzyme activity, inhibitor; 100 µM).
The inhibition of `C[C@]12CCC[C@H]1[C@@H]1CCc3c(cc(Br)c(O)c3Br)[C@H]1CC2` is reported as 50% (Aldo-keto reductase family 1 member C3 (AKR1C3, Homo sapiens, UniProt P42330); enzyme activity, inhibitor, absorbance; 10 µM, pH 9).
`CCN(Cc1ccccc1)C(=O)CCc1nc(CN2CCN(C(=O)Cc3ccc(OC)c(OC)c3)CC2)no1` has an inhibition of 0.56% (Sodium channel protein type 1 subunit alpha (SCN1A, Homo sapiens, UniProt P35498); ion current, inhibitor, patch clamp; 10 µM).
The inhibition of `C=CCn1cnc2c(NCc3ccc(C)s3)nc(N[C@H](CC)CO)nc21` is reported as 10 to 20% (Cyclin-dependent kinase 5 (CDK5, Homo sapiens, UniProt Q00535); enzyme activity; 2 µM).
For `N=C(N)NCCC[C@@H]1NC(=O)[C@H](CCCCNC(=O)CCOCCOCCOCCOCCNC(=O)CC[C@H](NC(=O)CCOCCOCCOCCOCCNC(=O)CC[C@H](NC(=O)CN2CCN(CC(=O)O)CCN(CC(=O)O)CCN(CC(=O)O)CC2)C(=O)NCCOCCOCCOCCOCCC(=O)N[C@@H](CCC(=O)NCCOCCOCCOCCOCCC(=O)NCCCC[C@@H]2NC(=O)[C@@H](Cc3ccccc3)NC(=O)[C@H](CC(=O)O)NC(=O)CNC(=O)[C@H](CCCNC(=N)N)NC2=O)C(=O)NCCOCCOCCOCCOCCC(=O)NCCCC[C@@H]2NC(=O)[C@@H](Cc3ccccc3)NC(=O)[C@H](CC(=O)O)NC(=O)CNC(=O)[C@H](CCCNC(=N)N)NC2=O)C(=O)NCCOCCOCCOCCOCCC(=O)NCCCC[C@@H]2NC(=O)[C@@H](Cc3ccccc3)NC(=O)[C@H](CC(=O)O)NC(=O)CNC(=O)[C@H](CCCNC(=N)N)NC2=O)NC(=O)[C@@H](Cc2ccccc2)NC(=O)[C@H](CC(=O)O)NC(=O)CNC1=O` [indium-111 labelled], the tissue uptake was 1.5 ± 0.17 %ID/g (female athymic nude mice, liver; intravenous, 3 µCi, 24 h, U-87 MG glioma xenograft).
Under inhibition, `O=C(NC1CCN(c2ncnc3[nH]cnc23)CC1)c1cccc(NS(=O)(=O)c2ccc(C(F)(F)F)cc2)c1` is recorded as “inactive” (DNA (cytosine-5)-methyltransferase 1 (DNMT1, Homo sapiens, UniProt P26358); enzyme activity, inhibitor; concentration not given).
For `Cc1cccnc1Nc1c2c(nc3ccccc13)CCC(C)C2` (stereo not drawn), the inhibition was -139% (BCHE; enzyme activity, inhibitor; 100 µM).
`CC1N=C(c2ccccc2F)c2cc(Nc3ccccc3C(F)(F)F)ccc2NC1=O` (stereo not drawn) gave an inhibition of 16% (Alpha-2C adrenergic receptor (ADRA2C, Homo sapiens, UniProt P18825); ligand displacement, radioligand; 10 µM).

For quick reference, copied from above:
For `N=C(N)NCCC[C@@H]1NC(=O)[C@H](CCCCNC(=O)CCOCCOCCOCCOCCNC(=O)CC[C@H](NC(=O)CCOCCOCCOCCOCCNC(=O)CC[C@H](NC(=O)CN2CCN(CC(=O)O)CCN(CC(=O)O)CCN(CC(=O)O)CC2)C(=O)NCCOCCOCCOCCOCCC(=O)N[C@@H](CCC(=O)NCCOCCOCCOCCOCCC(=O)NCCCC[C@@H]2NC(=O)[C@@H](Cc3ccccc3)NC(=O)[C@H](CC(=O)O)NC(=O)CNC(=O)[C@H](CCCNC(=N)N)NC2=O)C(=O)NCCOCCOCCOCCOCCC(=O)NCCCC[C@@H]2NC(=O)[C@@H](Cc3ccccc3)NC(=O)[C@H](CC(=O)O)NC(=O)CNC(=O)[C@H](CCCNC(=N)N)NC2=O)C(=O)NCCOCCOCCOCCOCCC(=O)NCCCC[C@@H]2NC(=O)[C@@H](Cc3ccccc3)NC(=O)[C@H](CC(=O)O)NC(=O)CNC(=O)[C@H](CCCNC(=N)N)NC2=O)NC(=O)[C@@H](Cc2ccccc2)NC(=O)[C@H](CC(=O)O)NC(=O)CNC1=O` [indium-111 labelled], the tissue uptake was 1.5 ± 0.17 %ID/g (female athymic nude mice, liver; intravenous, 3 µCi, 24 h, U-87 MG glioma xenograft).
